Measured values from different studies.
Every numbered part comes from another study and shows a few of its results, in no order. Substitutions count along the parent as printed.
UniProt Q8N2K1, sequence (whole entry, looked up): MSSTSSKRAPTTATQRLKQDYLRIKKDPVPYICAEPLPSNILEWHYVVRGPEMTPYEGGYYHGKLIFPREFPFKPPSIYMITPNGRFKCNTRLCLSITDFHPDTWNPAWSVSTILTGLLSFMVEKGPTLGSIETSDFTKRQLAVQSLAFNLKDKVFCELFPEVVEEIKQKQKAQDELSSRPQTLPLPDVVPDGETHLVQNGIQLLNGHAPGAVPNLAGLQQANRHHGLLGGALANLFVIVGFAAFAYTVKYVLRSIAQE
UniProt Q9C0C9, sequence (whole entry, looked up): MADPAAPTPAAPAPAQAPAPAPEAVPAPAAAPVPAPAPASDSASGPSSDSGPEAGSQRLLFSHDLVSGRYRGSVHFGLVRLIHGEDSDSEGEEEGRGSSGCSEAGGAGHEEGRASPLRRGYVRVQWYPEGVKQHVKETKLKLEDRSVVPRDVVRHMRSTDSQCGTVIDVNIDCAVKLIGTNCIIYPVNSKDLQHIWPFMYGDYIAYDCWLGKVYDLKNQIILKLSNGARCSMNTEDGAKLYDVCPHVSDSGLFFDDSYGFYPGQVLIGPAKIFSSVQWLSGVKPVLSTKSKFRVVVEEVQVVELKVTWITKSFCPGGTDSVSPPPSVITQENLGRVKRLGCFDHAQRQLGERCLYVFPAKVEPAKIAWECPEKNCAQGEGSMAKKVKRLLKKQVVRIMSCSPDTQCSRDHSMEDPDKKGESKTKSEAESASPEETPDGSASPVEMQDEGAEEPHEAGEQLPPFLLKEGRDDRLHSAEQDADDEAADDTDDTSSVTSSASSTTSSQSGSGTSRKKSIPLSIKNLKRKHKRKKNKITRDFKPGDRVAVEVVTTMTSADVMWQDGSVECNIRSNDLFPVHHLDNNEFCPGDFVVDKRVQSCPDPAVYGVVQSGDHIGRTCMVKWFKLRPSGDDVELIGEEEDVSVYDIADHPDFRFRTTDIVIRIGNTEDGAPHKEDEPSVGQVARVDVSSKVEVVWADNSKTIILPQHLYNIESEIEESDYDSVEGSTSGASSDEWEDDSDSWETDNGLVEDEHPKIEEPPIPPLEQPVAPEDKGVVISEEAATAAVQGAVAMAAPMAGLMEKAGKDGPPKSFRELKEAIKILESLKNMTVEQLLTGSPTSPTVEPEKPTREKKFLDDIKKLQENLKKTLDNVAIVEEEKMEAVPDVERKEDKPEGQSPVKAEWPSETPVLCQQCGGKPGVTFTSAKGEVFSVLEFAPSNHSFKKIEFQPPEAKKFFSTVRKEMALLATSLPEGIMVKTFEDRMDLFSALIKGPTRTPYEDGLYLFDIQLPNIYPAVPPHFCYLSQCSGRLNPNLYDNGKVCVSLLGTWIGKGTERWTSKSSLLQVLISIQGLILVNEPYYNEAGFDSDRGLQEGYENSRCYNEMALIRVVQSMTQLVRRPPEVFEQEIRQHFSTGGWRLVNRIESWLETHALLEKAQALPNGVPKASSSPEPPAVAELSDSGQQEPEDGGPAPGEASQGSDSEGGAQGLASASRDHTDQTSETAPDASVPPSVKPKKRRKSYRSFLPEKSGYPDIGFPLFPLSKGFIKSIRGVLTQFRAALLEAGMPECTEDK
UniProt Q969T4, sequence (whole entry, looked up): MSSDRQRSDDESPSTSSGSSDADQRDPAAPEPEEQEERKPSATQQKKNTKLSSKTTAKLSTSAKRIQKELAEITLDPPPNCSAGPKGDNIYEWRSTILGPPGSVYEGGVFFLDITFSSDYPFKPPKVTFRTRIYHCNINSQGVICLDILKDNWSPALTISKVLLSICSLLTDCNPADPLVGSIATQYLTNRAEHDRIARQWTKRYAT
UniProt Q16763, sequence (whole entry, looked up): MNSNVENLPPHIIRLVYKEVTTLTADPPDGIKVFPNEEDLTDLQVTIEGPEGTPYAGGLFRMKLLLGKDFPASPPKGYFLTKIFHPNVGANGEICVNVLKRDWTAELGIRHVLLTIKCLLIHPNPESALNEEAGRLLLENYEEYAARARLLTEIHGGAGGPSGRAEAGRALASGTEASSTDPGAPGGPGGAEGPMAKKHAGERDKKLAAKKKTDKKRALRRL
UniProt Q9NPD8, sequence (whole entry, looked up): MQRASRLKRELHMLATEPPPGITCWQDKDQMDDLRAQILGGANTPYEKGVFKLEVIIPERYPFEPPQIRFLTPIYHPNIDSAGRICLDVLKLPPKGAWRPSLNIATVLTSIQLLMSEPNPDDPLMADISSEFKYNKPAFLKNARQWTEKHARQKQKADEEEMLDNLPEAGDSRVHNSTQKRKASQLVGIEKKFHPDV
UniProt P63146, sequence (whole entry, looked up): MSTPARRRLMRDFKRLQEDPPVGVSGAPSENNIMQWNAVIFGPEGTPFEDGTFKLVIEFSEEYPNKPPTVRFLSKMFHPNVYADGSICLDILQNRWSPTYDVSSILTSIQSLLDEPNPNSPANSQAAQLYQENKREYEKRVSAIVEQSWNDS
UniProt O00762, sequence (whole entry, looked up): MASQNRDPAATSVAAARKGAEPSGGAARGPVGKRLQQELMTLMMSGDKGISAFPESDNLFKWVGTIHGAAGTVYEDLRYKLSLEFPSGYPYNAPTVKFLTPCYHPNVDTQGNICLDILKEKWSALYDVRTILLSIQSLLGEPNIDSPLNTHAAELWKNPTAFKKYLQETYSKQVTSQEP

Study 1 — method: protein-binding microarray; form: double-stranded DNA, one strand shown; medium: in vitro; tested at: 940 nM top; notes: 60-bp whole probe; added: salmon DNA 0.4 mg/ml; reference: random background probes; direction: higher = stronger binding; constant ends, left off below: GCCTAGCAC … GTCTTGATTCGCTTGACGCTGCTG
Target: Interferon regulatory factor 5, full length, phosphomimetic (IRF5, Homo sapiens, UniProt Q13568-2, residues 1-514, S451D/S453D/S456D/S462D)
Under “fitted relative affinity”, `GACGGTTTCCTTTTCGTGACGTGCTAG` is recorded as 2.04 z-score.
`TTAGGACTGCTTACCCTTTAGTGCTAG`: “fitted relative affinity” -0.025 z-score.
`TTAGATTTCGGGTATCAATTAGTGCTA` — result for “fitted relative affinity”: 2.04 z-score.
`TTAGGTTTCGGCTCCGGTTAGTGCTAG` — result for “fitted relative affinity”: 9.58 z-score.
`TTAGGTATCAGACTGGATTAGTGCTAG` — result for “fitted relative affinity”: 0.756 z-score.
For `GCCGATATCAGTTTCGAGACGTGCTAG`, “fitted relative affinity” read 4.35 z-score.
`TTCTGAAGCAGAGCCCTGTTGTGCTAG` — result for “fitted relative affinity”: -0.528 z-score.
For `GACGGACTGGAGTATCGGGACGTGCTA`, “fitted relative affinity” read 0.451 z-score.
`TCATTTTTGTTGTTTTTACTGTGCTAG`: “fitted relative affinity” 1.34 z-score.
For `TTAGGAGTGGACACTGGGTTAGTGCTA`, “fitted relative affinity” read -0.319 z-score.
For `TTGCTTTCCTTTATGTACTCGTGCTAG`, “fitted relative affinity” read 1.62 z-score.
`GACGAACAGGGGTTTCGAGACGTGCTA` — result for “fitted relative affinity”: 1.86 z-score.
`TACTCTTGTGACTATGGACCGTGCTAG` — result for “fitted relative affinity”: 0.249 z-score.
`TTAGGTTTCGACATTGGGTTAGTGCTA` — result for “fitted relative affinity”: 8.13 z-score.
`TTAGGTTTCGCTATCGGTTAGTGCTAG`: “fitted relative affinity” 8.89 z-score.
Under “fitted relative affinity”, `GACGATCTCGGTTTCGAGACGTGCTAG` is recorded as 4.08 z-score.
`GACGGTTTCCTATTCCTGACGTGCTAG` — result for “fitted relative affinity”: 1.57 z-score.
For `TCGTTATCCTATATCTGAACGTGCTAG`, “fitted relative affinity” read 0.473 z-score.
For `TTAGGATTGGGGTTTCGGTTAGTGCTA`, “fitted relative affinity” read 6.12 z-score.

Study 2 — target: CCNB1, cyclin fold, Cln2 fusion (human); method: yeast growth competition, sequencing; medium: yeast; notes: weak parent motif; reference: not given; direction: higher = stronger binding
Parent: ORC1 docking peptide (human); PRARKRLELGNLG
For `L7W`, “normalised enrichment score” read 1.01.
`R2Y`: “normalised enrichment score” -0.03.
`P1D` — result for “normalised enrichment score”: 1.14.
`L12S` — result for “normalised enrichment score”: 0.735.
For `L9H`, “normalised enrichment score” read 0.371.
`E8I` — result for “normalised enrichment score”: -0.125.
`G10P` — result for “normalised enrichment score”: 0.414.
Under “normalised enrichment score”, `L7S` is recorded as 0.643.
Under “normalised enrichment score”, `N11V` is recorded as 0.794.
`R4F`: “normalised enrichment score” 0.249.
`L9P`: “normalised enrichment score” -0.00362.
Under “normalised enrichment score”, `L9S` is recorded as 0.811.
For `L7M`, “normalised enrichment score” read 0.611.
For `K5I`, “normalised enrichment score” read 0.872.
`N11F`: “normalised enrichment score” 0.91.
For `L7K`, “normalised enrichment score” read 1.42.
Under “normalised enrichment score”, `R2W` is recorded as 0.93.
`E8A`: “normalised enrichment score” 0.427.
Under “normalised enrichment score”, `K5W` is recorded as 0.671.
`G10Y`: “normalised enrichment score” 1.98.
Under “normalised enrichment score”, `L9N` is recorded as 0.546.
For `P1K`, “normalised enrichment score” read 1.01.

Study 3 — method: RNA Bind-n-Seq; form: RNA; medium: in vitro; tested at: 20 nM; notes: 6-mer, flanks averaged, single round; added: 150 mM KCl; reference: input library; direction: higher = stronger binding
Target: TAR DNA-binding protein 43, full length, His tag (TARDBP, Homo sapiens, UniProt Q13148, residues 1-414)
`CCGACG` — result for “6-mer enrichment (R)”: 0.908.
`CUCAUU`: “6-mer enrichment (R)” 0.567.
`UCACGA` — result for “6-mer enrichment (R)”: 0.629.
`GGCCAA`: “6-mer enrichment (R)” 1.15.
`AUAUAU` — result for “6-mer enrichment (R)”: 0.625.
`GCAAAC`: “6-mer enrichment (R)” 0.703.
Under “6-mer enrichment (R)”, `AUAGGG` is recorded as 2.02.
For `ACAAGC`, “6-mer enrichment (R)” read 0.701.
For `GAACGC`, “6-mer enrichment (R)” read 0.873.
For `UCCGCG`, “6-mer enrichment (R)” read 0.873.
`AACGUA`: “6-mer enrichment (R)” 0.636.
Under “6-mer enrichment (R)”, `GAAGUU` is recorded as 0.748.
`ACGCCC` — result for “6-mer enrichment (R)”: 0.672.
For `GUCAUG`, “6-mer enrichment (R)” read 0.885.
`CUUUAG` — result for “6-mer enrichment (R)”: 0.615.
For `UAACCC`, “6-mer enrichment (R)” read 0.606.
For `GAUAGC`, “6-mer enrichment (R)” read 0.851.
`UAAGGU`: “6-mer enrichment (R)” 0.783.
`GUGUUG` — result for “6-mer enrichment (R)”: 1.4.
`AGUAGA` — result for “6-mer enrichment (R)”: 0.882.

Study 4 — method: yeast two-hybrid; medium: yeast; notes: mostly zero background; reference: not given; direction: higher = stronger interaction
Sequence: NTAPSLTVPECAICLQTCVHPVSLPCKHVFCYLCVKGASWLGKRCALCRQEIPEDFLDK (RNF146 RING domain (UniProt Q9NTX7))
It gave 0 for “lacZ reporter activity” (UBE2O UBC core domain (UniProt Q9C0C9)).
UBE2C UBC core domain (UniProt O00762) — “lacZ reporter activity”: 0.
For UBE2S UBC core domain (UniProt Q16763): “lacZ reporter activity” read 0.
It gave 0 for “lacZ reporter activity” (UBE2T UBC core domain (UniProt Q9NPD8)).
The “lacZ reporter activity” was 0 (UBE2B UBC core domain (UniProt P63146)).
The “lacZ reporter activity” was 0 (UBE2E3 UBC core domain (UniProt Q969T4)).
For UBE2I UBC core domain (UniProt P63279): “lacZ reporter activity” read 0.
It gave 0 for “lacZ reporter activity” (UBE2J2 UBC core domain (UniProt Q8N2K1)).

Some of these lines once more (study 2):
`G10Y`: “normalised enrichment score” 1.98.
`R4F`: “normalised enrichment score” 0.249.
`G10P` — result for “normalised enrichment score”: 0.414.
`E8A`: “normalised enrichment score” 0.427.
